Results collected from several papers.
Lines come from different studies, so protocols differ. Several values in a cell are separate wells, animals, samples, runs or records. Numbers after ± are the reported error.
TOP2A: DNA topoisomerase 2-alpha (TOP2A, Homo sapiens, UniProt P11388)
Cereblon/Ikaros: Cereblon/Ikaros (Homo sapiens, UniProt Q13422+Q96SW2)
BEST2: Bestrophin-2a (BEST2, Homo sapiens, UniProt Q8NFU1)
T1: G-quadruplex RNA (Homo sapiens); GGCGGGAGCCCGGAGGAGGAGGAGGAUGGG

Compound	target	test	system	conditions	scale	quantity	value
CN(C)C(=O)C(CCN1CCC(O)(c2ccc(Cl)cc2)CC1)(c1ccccc1)c1ccccc1	Calcium-activated potassium channel subunit alpha-1, with LRRC26 γ1 subunit (KCNMA1, Homo sapiens, UniProt Q12791)	ion current, inside-out patch, fit of G-V curve	BKα/γ1 channel	0.3 µM, together with: nominally 0 Ca2+		V1/2	11.9 mV
O=c1nc(SCc2cc(F)cc(C(F)(F)F)c2)nc(SCc2nc3ccccc3[nH]2)[nH]1	TOP2A	decatenation		7.8 µM, replicate 2		decatenated DNA	100%
N[C@@H](CCC(=O)O)C(=O)O	Uncharacterized protein (Pelagibacter ubique, UniProt Q4FM26)	binding, competition isothermal titration calorimetry	Candidatus Pelagibacter ubique	together with: phenylalanine 1 mM competitor		Ka	1.39e+09 M⁻¹ and 2.91e+09 M⁻¹
CCC(C)(NCCc1ccc(Cl)c(C(F)(F)F)c1)c1cccc(NC2=CC(=O)N(C3CCC(=O)NC3=O)C2=O)c1 (centres unmarked)	Cereblon/Ikaros	protein degradation, degrader, HiBiT luminescence	Jurkat			Dmax	79%
Nc1nc(-c2ccc(Cl)c(S(N)(=O)=O)c2)cs1	Carbonic anhydrase 4 (CA4, Homo sapiens, UniProt P22748)	ITC		concentration not given, 25 °C		intrinsic binding ΔH	-4.13 kcal/mol
Cc1ccccc1C1CC(=O)c2c(C)nc(N)nc2C1 (centres unmarked)	DNA (cytosine-5)-methyltransferase 3A, PWWP domain (DNMT3A, Homo sapiens, UniProt Q9Y6K1)	binding, affinity selection mass spectrometry			relative to: other proteins in batch	log fold enrichment	-0.0483
NCCCC(=O)O	Sodium- and chloride-dependent taurine transporter (SLC6A6, Homo sapiens, UniProt P31641, L306A)	binding, microscale thermophoresis		15.6 µM, room temperature, together with: 50 nM labelled protein	higher = more binding	normalised MST signal	-0.0604
O=C(Nc1cccc2ncccc12)C1CCCN(S(=O)(=O)c2cccs2)C1 (centres unmarked)	AASS, LKR domain (Homo sapiens, UniProt Q9UDR5)	binding, surface plasmon resonance		1.667 µM		SPR response	1.4 RU
C=CC(=O)N1CCN(c2nc(OC[C@@H]3CCCN3C)nc3c(F)c(-c4nc(N)cc(C)c4C(F)(F)F)c(Cl)cc23)[C@@H](C)C1	GTPase KRas, GDP-bound (KRAS, Homo sapiens, UniProt P01116, G12V)	binding, surface plasmon resonance				association rate constant	94400 ± 22000 M⁻¹ s⁻¹
O=C1NC(=O)/C(=C/c2ccc(OCCNc3nc4c(cnn4C4CCCC4)c(=O)[nH]3)c(F)c2)S1	cGMP-dependent 3',5'-cyclic phosphodiesterase (PDE2A, Homo sapiens, UniProt O00408)				relative to: PDE2A over PDE9	selectivity ratio	53 fold
COc1ccc2c3c([nH]c2c1)[C@H](CC(C)C)N1C(=O)[C@H](CC(=O)NC(C)C)NC(=O)[C@@H]1C3	Broad substrate specificity ATP-binding cassette transporter ABCG2 (Mus musculus, UniProt Q7TMS5)	inhibitor, refers to: protoporphyrin IX	Fech-mutant mice, red blood cells	10 µM, 3 h		efflux	6.4% and 6.5% and 10.8% and 10.5% and 10.9%
O=c1nc(SCc2cc(F)cc(C(F)(F)F)c2)nc(SCc2ccc3sccc3c2)[nH]1	TOP2A	DNA cleavage		15.6 µM, together with: etoposide 50 µM		linear DNA	10.4%
O=C(O)c1ccc([N+](=O)[O-])cc1	BEST2	whole-cell patch clamp	HEK293 transiently expressing channel	concentration not given, membrane potential 0 mV		current density	-0.27 pA/pF and -0.2 pA/pF and -0.54 pA/pF and 0.03 pA/pF and -0.8 pA/pF
O=c1cc(-c2ccc(OS(=O)(=O)O)cc2)oc2cc(OS(=O)(=O)O)cc(OCc3cccc(COc4cc(OS(=O)(=O)O)cc5oc(-c6ccc(OS(=O)(=O)O)cc6)cc(=O)c45)n3)c12	Neutrophil elastase (ELANE, Homo sapiens, UniProt P08246)			750 nM, together with: chromogenic substrate		Km	1220 ± 117 µM
Oc1ccc(/C=C/c2cc(O)cc(O)c2)cc1	O-methyltransferase (Sorghum bicolor, UniProt A0A1B6PFV1)	ITC		concentration not given, together with: ADN+		binding stoichiometry	0.7 ± 0.005
O=C(O)c1ccc(O)cc1	BEST2	whole-cell patch clamp	HEK293 transiently expressing channel	concentration not given, membrane potential 100 mV		current density	281 pA/pF and 210 pA/pF and 264 pA/pF and 218 pA/pF and 128 pA/pF and 147 pA/pF and 167 pA/pF
COC(=O)C1CCN(C(=O)Cc2ccc(NCc3cnc4nc(N)nc(N)c4n3)cc2)CC1	Pteridine reductase 1 (Leishmania major, UniProt Q01782)			hDHFR weight 10	relative to: LmPTR1, LmDHFR over hDHFR, 1.0 selective, 0.0 non-selective	partition index	0.88
CC(C)c1noc2ncc(C(=O)c3ccccc3O)cc12	Otop1 (Mus musculus, UniProt Q80VM9)	pH 8.5-evoked current, patch clamp		10 µM, pH 8.5, preincubated		normalized current I2/I1	2.38
CC(C)c1ccc(CSc2nc(SCc3ccc4sccc4c3)[nH]c(=O)n2)cc1	TOP2A	decatenation		125 µM, replicate 2		decatenated DNA	0%
C=CC(=O)N1CCC[C@@H](n2nc(-c3ccc(Oc4ccccc4)cc3)c3c(N)ncnc32)C1	Fibroblast growth factor receptor 1 (FGFR1, Homo sapiens, UniProt P11362)			10 µM		remaining activity	64.1%
Nc1nc(N)c2c(n1)CCCC2	Dihydrofolate reductase (folA, Escherichia coli, UniProt P0ABQ4)			concentration not given, ternary complex with NADPH		major state population	97.3 ± 0.3%

Compound	target	test	system	conditions	scale	quantity	value
CCS(=O)(=O)c1nc(C)cc(-c2ccccc2)n1	Importin subunit beta-1 (KPNB1, Homo sapiens, UniProt Q14974, C585A)	thermal shift		30 µM, 2 h		Tm2	50.6 °C
CC[C@@H]1[C@H](F)C(=O)N[C@@H]1COc1nccc2cc(C(N)=O)c(OC)cc12	Serine/threonine-protein kinase N1 (PKN1, Homo sapiens, UniProt Q16512)	ATP-site probe binding, ActivX profiling	THP-1 cell lysate	0.2 mM, Lys1 site		inhibition	5%
N.N.[Cl-].[Cl-].[Pt+2]	T1, G-quadruplex RNA (Homo sapiens)	SPR		25 °C, LiCl 100 mM, disrupted rG4, covalent		Kd	46 µM
c1ccc(CCCCCOCCc2ccc3c(c2)OCC3)cc1	ATP2A2 (Sus scrofa, UniProt P11607)	ATPase Vmax increase, activator	pig microsomes	0.1 to 50 µM	relative to: vehicle	Emax	~23%
Nc1ncnc2c1ncn2[C@@H]1O[C@H](COP(=O)(O)CP(=O)(O)OP(=O)(O)O)[C@@H](O)[C@H]1O	P2X purinoceptor 1 (P2RX1, Homo sapiens, UniProt P51575, E122A)	saturation binding		103 nM		specific binding	764 corrected cpm and 1200 corrected cpm and 776 corrected cpm
O=C1CCC(N2C(=O)C=C(Nc3cccc(C4(NCCc5ccc(C(F)(F)F)c(Cl)c5)CCCC4)c3)C2=O)C(=O)N1 (centres unmarked)	Cereblon/Ikaros	protein degradation, degrader, HiBiT luminescence	Jurkat			Dmax	83%
O=c1nc(SCc2cc(F)cc(C(F)(F)F)c2)nc(SCc2ccc3nc(Cl)ccc3c2)[nH]1	TOP2A	ATPase activity		31.25 µM, together with: ATP 0.25 mM		ATP hydrolysis rate	0.923 µM/min and 1.46 µM/min
NNc1ccc2ccccc2c1	Secernin-3 (Homo sapiens, UniProt Q0VDG4)	gel-based ABPP	HEK-293T lysate		relative to: IC50 AMD1 over Secernin-3	selectivity ratio	35 fold
Cc1c(COc2ccc(CN3CCCCC3C(=O)NCCCCCCNC(=O)CN(C)CCCC34CCC(c5ccccc53)c3ccccc34)cc2Br)cccc1-c1ccccc1 (centres unmarked)	Programmed cell death 1 ligand 1 (CD274, Homo sapiens, UniProt Q9NZQ7)	degrader, western blot	HL-60	1 µM		degradation	18.5 ± 3.1%
Cc1ccc(NC(=O)/C=C/c2cccs2)cc1	Neuronal acetylcholine receptor subunit alpha-7 (Chrna7, Rattus norvegicus, UniProt Q05941)	ion current, positive allosteric modulator		together with: acetylcholine 30 µM		Hill coefficient	1.2 ± 0.2
Nc1ccc(C(=O)O)cc1	BEST2	whole-cell patch clamp	HEK293 transiently expressing channel	concentration not given, membrane potential 100 mV		current density	109 pA/pF and 254 pA/pF and 411 pA/pF and 228 pA/pF and 314 pA/pF and 355 pA/pF
Cc1cc(Nc2cc(N3CCN(C)CC3)nc(Sc3ccc(NC(=O)C4CC4)cc3)n2)[nH]n1	PAS domain-containing serine/threonine-protein kinase (PASK, Homo sapiens, UniProt Q96RG2)	kinase activity, KinaseProfiler		0.03 µM, species human	relative to: control	remaining activity	53%
Cc1nc(CSc2nc(SCc3ccc(C(F)(F)F)cc3)nc(=O)[nH]2)cs1	TOP2A	decatenation		125 µM, replicate 2		decatenated DNA	27.8%
COC(=O)c1cn(C)c2ccc(-c3cccnc3)cc12	Retinoic acid receptor alpha (RARA, Homo sapiens, UniProt P10276)	reporter gene, Gal4 hybrid reporter		10 µM	relative to: vehicle	activation	0.84 fold
Nc1nc2c(ncn2[C@@H]2O[C@H](COP(=O)(O)O)[C@@H](O)[C@H]2O)c(=O)[nH]1	GUK1 (Homo sapiens, UniProt Q16774, R148A)	binding, ITC		together with: GMP		-TΔS	3.96 kcal/mol
CC(C)N(CCC(=O)c1ccc2ccccc2c1)Cc1ccccc1	Protein-glutamine gamma-glutamyltransferase (TGM2, Homo sapiens, UniProt P21980)	enzyme activity, inhibitor		concentration not given, together with: DTT	relative to: without DTT over with DTT	potency reduction	~300 fold
Cc1cc(=O)oc2cc(O[C@@H]3O[C@H](CO)[C@@H](O)[C@H](O)[C@H]3O)ccc12	Lysosomal acid glucosylceramidase (GBA1, Homo sapiens, UniProt P04062, R534H)	substrate, blue fluorogenic		room temperature		Km	862 µM
O=c1nc(SCc2ccc(C(F)(F)F)cc2)nc(SCc2ccc3sccc3c2)[nH]1	TOP2A	decatenation		125 µM		mean decatenated DNA	0.08%
CC(=C/C(=O)O)/C=C/C=C(\C)C1C=C2C(C)(C)CCCC2(C)O1 (centres unmarked)	Rhodopsin (RHO, Homo sapiens, UniProt P08100, T17M)	ER retention, immunostaining co-localization, refers to: opsin with calnexin	COS-7 transfected T17M	5.00 µM		Pearson correlation coefficient	0.67
CCCCCCCC/C=C\CCCCCCCC(=O)NCCc1ccc(O)c(O)c1	Transient receptor potential cation channel subfamily V member 1 (Trpv1, Mus musculus, UniProt Q704Y3, T551V)	ion current, agonist, whole-cell patch clamp		T551V	relative to: 3 mM 2-APB	maximal open probability	0.45 ± 0.05

Repeated from above:
Compound	target	test	system	conditions	scale	quantity	value
Cc1ccc(NC(=O)/C=C/c2cccs2)cc1	Neuronal acetylcholine receptor subunit alpha-7 (Chrna7, Rattus norvegicus, UniProt Q05941)	ion current, positive allosteric modulator		together with: acetylcholine 30 µM		Hill coefficient	1.2 ± 0.2
Nc1ccc(C(=O)O)cc1	BEST2	whole-cell patch clamp	HEK293 transiently expressing channel	concentration not given, membrane potential 100 mV		current density	109 pA/pF and 254 pA/pF and 411 pA/pF and 228 pA/pF and 314 pA/pF and 355 pA/pF
Cc1cc(Nc2cc(N3CCN(C)CC3)nc(Sc3ccc(NC(=O)C4CC4)cc3)n2)[nH]n1	PAS domain-containing serine/threonine-protein kinase (PASK, Homo sapiens, UniProt Q96RG2)	kinase activity, KinaseProfiler		0.03 µM, species human	relative to: control	remaining activity	53%
Cc1nc(CSc2nc(SCc3ccc(C(F)(F)F)cc3)nc(=O)[nH]2)cs1	TOP2A	decatenation		125 µM, replicate 2		decatenated DNA	27.8%
